Experimental data of several laboratories.
Every numbered part comes from another study and shows a few of its results, in no order.

Study 1
Target: Histone acetyltransferase KAT6A, winged helix 1, GST fusion (KAT6A, Homo sapiens, UniProt Q92794, residues 1-85)
Method: protein binding microarray
Molecule type: double-stranded DNA, one strand shown
Medium: in vitro
Tested at: not given
Notes: 8-mer, flanks averaged, mean of 2 arrays, mostly near background
Reference: not given
Direction: higher = stronger binding
Construct (chain): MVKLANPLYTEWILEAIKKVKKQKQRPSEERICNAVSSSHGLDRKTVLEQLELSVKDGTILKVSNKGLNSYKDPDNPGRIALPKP
With `TGGTGCAA` the E-score was -0.203.
The E-score of `CCACACCG` is reported as 0.065.
The E-score of `ATCATAGG` is reported as 0.00198.
`AATGGTGC` has an E-score of -0.0707.
With `AGCATGGC` the E-score was -0.0731.
`ACCTCCCA` gave an E-score of -0.22.
`AATGCATA` gave an E-score of -0.148.
`ATGTGACC` has an E-score of 0.0228.
`ATGGAGTC` has an E-score of -0.142.
`TAGACAGA` gave an E-score of -0.16.
`CCGTTAAG` has an E-score of 0.132.
With `ATGCAATG` the E-score was -0.0685.
For `AACGCCCC`, the E-score was 0.0413.
For `AGTAAACC`, the E-score was -0.0246.
`AAAGATGA` gave an E-score of -0.212.
For `GCCGACAA`, the E-score was 0.205.
`CACTGAGC` has an E-score of 0.0136.
With `CAGTATGA` the E-score was -0.205.
For `AGTCCCAG`, the E-score was -0.0748.
For `AATATAAG`, the E-score was -0.0528.
With `ACTTCAAA` the E-score was -0.319.

Study 2
Target: Fragile X messenger ribonucleoprotein 1, C-terminal low-complexity region (Fmr1, Mus musculus, UniProt P35922)
Method: RNA Bind-n-Seq
Molecule type: RNA
Medium: in vitro
Tested at: 200 nM
Notes: whole 134-nt RNA, ends assumed
With: 150 mM LiCl
Reference: input library
Direction: higher = stronger binding
Library: 7-deaza-guanosine replaces G
`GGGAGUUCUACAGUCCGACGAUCUUACUAGAAAAGGCAGAAGCCCGUGAACGUGAAAGAGAAAAAGAAGAGGCUCGGAAGAUGAAACGAAAAGAAUCUGCAUUUAAGAGUAUGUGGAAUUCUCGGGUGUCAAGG` has a log2 enrichment of -2.61.
`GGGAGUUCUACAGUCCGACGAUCAGUCCUGUGCUACACAUCGUAUGUACCGAAUCGGGUGGGUUUUUUUGGGAAAAAGGGAAAGUAUUAUGUUACGCCGUUCGGAUCUGCACUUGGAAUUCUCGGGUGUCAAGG` has a log2 enrichment of -1.3.
With `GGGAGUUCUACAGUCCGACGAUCUGCUGGAGGCAAAAAAUGCCAGCCUGGCGUCGUCCAACAACGACUUGCAGGUGGCCGAGGAGCAGUACCAGAGGCUUAUGGCCAAGGUAGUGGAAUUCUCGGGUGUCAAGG` the log2 enrichment was -3.47.
`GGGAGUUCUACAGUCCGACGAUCUGGCCCUGGUGGCAUGCGGGGAGGAAGAGGUGGCCUCAUGGAGCGUGGUGGUCCCGGUGGAAUGUUCAGAGGUGGCCGUGGUGGAGACAGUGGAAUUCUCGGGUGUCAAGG` gave a log2 enrichment of 0.363.
For `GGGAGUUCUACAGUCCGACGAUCCAAGUCCUGUGCUACACAUCGUAUGUACCGAAUCGGGGAAAGGAAAGGGGAAAGGGAAAGUAUUAUGUUACGCCGUUCGGAUCUGCACUUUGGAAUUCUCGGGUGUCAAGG`, the log2 enrichment was -0.969.
With `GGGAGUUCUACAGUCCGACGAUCUGGCCCUGGUGGCAUGCGGGGAGGAAGAGGUGGCCUUAUGGAUCGUGGUGGUCCCGGUGGAAUGUUCAGAGGUGGCCGUGGUGGAGACAGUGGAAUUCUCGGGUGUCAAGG` the log2 enrichment was 0.561.
`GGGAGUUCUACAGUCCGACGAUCUGUGCUACACAUCGUAUGUACCGAAUCGGUUUUUUUGGGGUUUUUUUGGGGUUUUUUUGGGGAAAGUAUUAUGUUACGCCGUUCGGAUCUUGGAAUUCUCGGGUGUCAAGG` gave a log2 enrichment of 1.75.
`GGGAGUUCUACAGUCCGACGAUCUCAAGUCCUGUGCUACACAUCGUAUGUACCGAAUCGGGAAAGGAAAGGAAAGGGGAAAGUAUUAUGUUACGCCGUUCGGAUCUGCACUUCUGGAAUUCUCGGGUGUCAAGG` gave a log2 enrichment of -1.11.
For `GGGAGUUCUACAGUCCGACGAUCAAGUCCUGUGCUACACAUCGUAUGUACCGAAUCGGGGAAAAAGGGGUGGGGUGGGGAAAGUAUUAUGUUACGCCGUUCGGAUCUGCACUUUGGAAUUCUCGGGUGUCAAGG`, the log2 enrichment was -1.05.
The log2 enrichment of `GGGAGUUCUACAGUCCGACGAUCCCUGUGCUACACAUCGUAUGUACCGAAUCGGUUUUUUUGGGUUUUUUUGGUUUUUUUGGGGAAAGUAUUAUGUUACGCCGUUCGGAUCUGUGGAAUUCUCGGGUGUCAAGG` is reported as -0.633.
`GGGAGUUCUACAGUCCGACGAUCUGGAAGUGGCGCUGGCGCCUGAAGAGUUGGAGCUGGAUCCUAUGGCCAUGACCCAGAAGUAUGAGGAGCAUGUGCGGGAGCAGCAGGCUCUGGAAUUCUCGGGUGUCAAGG` has a log2 enrichment of -1.3.

Study 3
Target: Transcription factor Sp1 (SP1, Homo sapiens, UniProt P08047, residues 1-785, full length assumed)
UniProt P08047, sequence (whole entry, looked up): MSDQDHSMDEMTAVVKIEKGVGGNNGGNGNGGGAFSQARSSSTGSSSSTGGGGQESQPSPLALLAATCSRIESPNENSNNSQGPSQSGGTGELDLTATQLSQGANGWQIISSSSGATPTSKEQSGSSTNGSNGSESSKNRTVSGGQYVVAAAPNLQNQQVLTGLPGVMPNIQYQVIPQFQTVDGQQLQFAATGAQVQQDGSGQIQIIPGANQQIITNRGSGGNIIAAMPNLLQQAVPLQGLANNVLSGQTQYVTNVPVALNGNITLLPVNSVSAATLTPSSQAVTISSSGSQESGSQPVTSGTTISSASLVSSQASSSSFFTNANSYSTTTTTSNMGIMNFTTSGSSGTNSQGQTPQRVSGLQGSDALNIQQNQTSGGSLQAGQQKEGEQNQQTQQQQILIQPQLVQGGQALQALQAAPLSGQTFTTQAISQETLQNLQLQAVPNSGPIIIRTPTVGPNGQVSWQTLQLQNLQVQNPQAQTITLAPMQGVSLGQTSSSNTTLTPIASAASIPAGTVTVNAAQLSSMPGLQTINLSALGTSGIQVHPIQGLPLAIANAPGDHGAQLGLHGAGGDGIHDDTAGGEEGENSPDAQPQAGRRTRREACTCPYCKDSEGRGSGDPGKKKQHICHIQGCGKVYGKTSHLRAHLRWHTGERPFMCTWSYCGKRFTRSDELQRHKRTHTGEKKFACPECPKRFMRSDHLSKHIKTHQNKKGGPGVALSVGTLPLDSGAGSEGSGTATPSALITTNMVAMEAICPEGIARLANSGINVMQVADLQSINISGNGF
Method: protein-binding microarray
Molecule type: double-stranded DNA, one strand shown
Medium: in vitro
Tested at: not given
Notes: k-mer, scored over probes, only values ≥0.25
Direction: higher = stronger binding
`GATGGGGA` gave an E-score of 0.308.
For `GCCCCATA`, the E-score was 0.346.
`ACACCTAC` gave an E-score of 0.273.
`CCACCCAC` has an E-score of 0.411.
`AAAGTGGG` gave an E-score of 0.289.
With `ACATGTCG` the E-score was 0.273.
For `ATCTGTAC`, the E-score was 0.282.
With `CTCCCCCC` the E-score was 0.322.
`CCTTTACG` has an E-score of 0.277.
The E-score of `CTCCCCTC` is reported as 0.444.
`CCACGCCC` has an E-score of 0.482.
With `CGCCCGCC` the E-score was 0.367.
The E-score of `CCCGCCCG` is reported as 0.393.
For `ATACGGTA`, the E-score was 0.253.
`AAGGGGCG` has an E-score of 0.443.
`CACAACCC` has an E-score of 0.277.
With `GCCCGCCC` the E-score was 0.48.
With `ACGGTGGG` the E-score was 0.28.
`ACTGTAAG` has an E-score of 0.259.
`GATCCCCA` gave an E-score of 0.262.

Study 4
Target: RNA binding protein fox-1 homolog 2, RRM domain, GST-SBP tag (RBFOX2, Homo sapiens, UniProt O43251-10, residues 100-194)
Method: RNA Bind-n-Seq
Molecule type: RNA
Medium: in vitro
Tested at: 365 nM
Notes: natural RNA segment, single round, ends assumed
Reference: no-protein control
Direction: higher = stronger binding
Residues (chain): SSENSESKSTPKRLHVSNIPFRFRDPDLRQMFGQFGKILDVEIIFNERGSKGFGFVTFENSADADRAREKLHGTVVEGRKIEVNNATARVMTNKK
Under “RBNS enrichment (R)”, `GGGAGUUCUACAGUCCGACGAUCUCAAAGCCCAGCUUAGUGAGGACUUGGGUCAACUUCAGUAAGCUUCCUCUGAAGCAACUGAAGGCCGAGCCUUUAGAGCAACCAUUGUCAACCUUUGUGGGUCGCCUAAGUGGAAUUCUCGGGUGCCAA` is recorded as 0.242.
For `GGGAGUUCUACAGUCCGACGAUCUACACACAUGAGCCAGUUUUUCCUUAUUGUAGUGUCCUGUGAGACAGACCAGCUCCAAGCACUGCUUAGAACAACGGCUCACUCUGACCUUGCUACACAUCCAUUUGGGGUGGAAUUCUCGGGUGCCAA`, “RBNS enrichment (R)” read 0.547.
`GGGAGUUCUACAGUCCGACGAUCCUGAGCCUUGUCACGCGCACUCGCCAAUUAAGAGAUGGACCAGCCAGCAGUCAAGUGCAUUCUCCAGUCCUUGCAAGAAGGAUCAGCCCUUUCUGUGCCAGCCUCGAUCGUGGAAUUCUCGGGUGCCAA`: “RBNS enrichment (R)” 0.452.
`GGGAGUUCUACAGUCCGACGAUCUUUUUUUGAGAUGGGGUUUCACUCUCUCACCCAGACUGGAGUACAGUGGGGAGAUCUCAGCUCACUGCAGCCUCUGCCUCCCAAGUUCAAGCGAUUCUCCUGUCUCAGCCUGGAAUUCUCGGGUGCCAA` — result for “RBNS enrichment (R)”: 0.286.
`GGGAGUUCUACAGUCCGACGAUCUGAUGUUUUCAUAAUGUUUAAGGGACCCACUGCAAGAAGCUUGCUGCCUCCUUUUAAUUGUAUUCAUUUAGAUUUUGAUUUUCCAUGUUAAGAAGGUGAGGUCCAUGUUGUGGAAUUCUCGGGUGCCAA` — result for “RBNS enrichment (R)”: 0.436.
`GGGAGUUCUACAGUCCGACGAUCAUCACAAGACCUAGGGAGAGGAAGUCCCCAAAAUGCUUGGGACAUGACCCAUCCUGAGGCCAGAUACAUACUUUAAAAUUCAGAUAUUCACCGUAGCAGGUAGACAGAUGUGGAAUUCUCGGGUGCCAA` — result for “RBNS enrichment (R)”: 0.42.
`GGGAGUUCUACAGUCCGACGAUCGUUUAGGAAGGAUUUGCUUGCUUGCAGCAGAAGUUCUAGGAAAAGCAGGCACCUCCCAAAUAUCUUGAGGACACUGGCAGCCUUAUGGUGACUAAAUCCACACUUUCUUUUGGAAUUCUCGGGUGCCAA`: “RBNS enrichment (R)” 0.289.
`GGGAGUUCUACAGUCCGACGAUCGCUAUUUCGUGGAACUUGGAACACAGCCUGCCACCCAGUGAAGUGUCCAGACCAUUGUCUUCCAACCCCAGCUGGCCUCUAGAACACCCACUGGCCAGUCCUAGAGCUCCUGGAAUUCUCGGGUGCCAA` — result for “RBNS enrichment (R)”: 0.634.
`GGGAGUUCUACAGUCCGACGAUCCUGGCCCUGUGGUUCGGUUCUCACAGUUCCAGUGAGACUGGGCAGCGUGUUUGCCUGUCCUGAGGUGCCAGGCCUGCAGAGAGUGGACUCUGGUGGGUGCUUCCUUCCUCUGGAAUUCUCGGGUGCCAA` — result for “RBNS enrichment (R)”: 0.26.
`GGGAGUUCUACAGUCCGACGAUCCAUGGCUGAAGCUGGAUGAGAUGUCCAGGAGUGCUCAUACAGCGACUGACGUAAGGACCCCCGACCGACCUCAUCUUGUUAAGUUAACGGAGACCCUUCUUGUUGAAGGGUGGAAUUCUCGGGUGCCAA`: “RBNS enrichment (R)” 0.371.
Under “RBNS enrichment (R)”, `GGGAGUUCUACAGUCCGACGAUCUGGCUUCUGGGAGCCUUUUGACAGCUGGUCCCUGCCUCGGUUGAUUGUGCAUGGAACUAAAAUGUUAUUGCCUAAUCACUCCAACCCUGCCCCUUUCUGUCCCAUCCUUCUGGAAUUCUCGGGUGCCAA` is recorded as 0.44.
Under “RBNS enrichment (R)”, `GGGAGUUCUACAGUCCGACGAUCUAGACAUUCCUUAAGUAUUUGUAUUUAUUUAUGAUUAUCAAUUUUACAUAACAUUAAUAUUGUAUCAGACCUCCUUAUGAAAAUGAGUAUGGAUGUGCACAGUAUGUUUGUGGAAUUCUCGGGUGCCAA` is recorded as 0.633.

A few entries again (study 1):
The E-score of `CCACACCG` is reported as 0.065.
The E-score of `ATCATAGG` is reported as 0.00198.
`AATGGTGC` has an E-score of -0.0707.
With `AGCATGGC` the E-score was -0.0731.
`ACCTCCCA` gave an E-score of -0.22.
`AATGCATA` gave an E-score of -0.148.
`ATGTGACC` has an E-score of 0.0228.
`ATGGAGTC` has an E-score of -0.142.
`TAGACAGA` gave an E-score of -0.16.
`CCGTTAAG` has an E-score of 0.132.
